Measurements gathered from unrelated publications.
Numbers after ± are the reported error.
RIPK1: Receptor-interacting serine/threonine-protein kinase 1 (RIPK1, Homo sapiens, UniProt Q13546)
UniProt Q13546, sequence (whole entry, looked up): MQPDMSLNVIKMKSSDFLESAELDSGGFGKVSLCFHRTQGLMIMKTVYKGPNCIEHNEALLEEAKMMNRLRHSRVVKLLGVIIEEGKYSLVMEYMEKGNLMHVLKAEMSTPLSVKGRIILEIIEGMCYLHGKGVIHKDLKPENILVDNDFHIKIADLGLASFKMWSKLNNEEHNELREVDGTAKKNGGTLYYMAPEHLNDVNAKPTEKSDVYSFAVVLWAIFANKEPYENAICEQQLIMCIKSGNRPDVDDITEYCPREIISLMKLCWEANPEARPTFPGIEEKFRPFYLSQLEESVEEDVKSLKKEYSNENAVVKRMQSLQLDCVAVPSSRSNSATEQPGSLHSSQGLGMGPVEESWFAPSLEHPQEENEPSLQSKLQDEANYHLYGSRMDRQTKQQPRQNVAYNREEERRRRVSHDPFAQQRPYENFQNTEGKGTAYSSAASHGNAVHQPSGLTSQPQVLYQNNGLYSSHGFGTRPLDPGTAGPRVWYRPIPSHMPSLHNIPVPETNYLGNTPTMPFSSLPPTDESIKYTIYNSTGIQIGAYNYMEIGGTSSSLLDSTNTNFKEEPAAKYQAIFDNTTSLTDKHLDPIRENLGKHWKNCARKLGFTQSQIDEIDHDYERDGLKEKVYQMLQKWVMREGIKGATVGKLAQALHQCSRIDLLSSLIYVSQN
ESR2: Estrogen receptor beta (ESR2, Homo sapiens, UniProt Q92731)
UniProt Q92731, sequence (whole entry, looked up): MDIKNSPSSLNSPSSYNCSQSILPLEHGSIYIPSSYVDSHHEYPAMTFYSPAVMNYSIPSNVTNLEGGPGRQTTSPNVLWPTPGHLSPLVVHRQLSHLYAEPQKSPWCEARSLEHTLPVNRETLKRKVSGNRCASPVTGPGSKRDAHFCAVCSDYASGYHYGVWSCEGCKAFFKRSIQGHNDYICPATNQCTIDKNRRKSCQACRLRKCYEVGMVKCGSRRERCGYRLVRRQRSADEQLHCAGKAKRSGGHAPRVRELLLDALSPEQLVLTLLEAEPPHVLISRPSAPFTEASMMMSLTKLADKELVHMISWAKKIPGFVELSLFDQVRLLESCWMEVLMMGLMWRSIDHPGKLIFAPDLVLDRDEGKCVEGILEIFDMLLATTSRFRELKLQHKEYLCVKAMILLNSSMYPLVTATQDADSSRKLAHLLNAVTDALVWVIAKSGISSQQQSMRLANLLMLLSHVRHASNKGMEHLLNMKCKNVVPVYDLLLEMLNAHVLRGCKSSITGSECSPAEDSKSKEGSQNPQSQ
ESR1: Estrogen receptor (ESR1, Homo sapiens, UniProt P03372)
UniProt P03372, sequence (whole entry, looked up): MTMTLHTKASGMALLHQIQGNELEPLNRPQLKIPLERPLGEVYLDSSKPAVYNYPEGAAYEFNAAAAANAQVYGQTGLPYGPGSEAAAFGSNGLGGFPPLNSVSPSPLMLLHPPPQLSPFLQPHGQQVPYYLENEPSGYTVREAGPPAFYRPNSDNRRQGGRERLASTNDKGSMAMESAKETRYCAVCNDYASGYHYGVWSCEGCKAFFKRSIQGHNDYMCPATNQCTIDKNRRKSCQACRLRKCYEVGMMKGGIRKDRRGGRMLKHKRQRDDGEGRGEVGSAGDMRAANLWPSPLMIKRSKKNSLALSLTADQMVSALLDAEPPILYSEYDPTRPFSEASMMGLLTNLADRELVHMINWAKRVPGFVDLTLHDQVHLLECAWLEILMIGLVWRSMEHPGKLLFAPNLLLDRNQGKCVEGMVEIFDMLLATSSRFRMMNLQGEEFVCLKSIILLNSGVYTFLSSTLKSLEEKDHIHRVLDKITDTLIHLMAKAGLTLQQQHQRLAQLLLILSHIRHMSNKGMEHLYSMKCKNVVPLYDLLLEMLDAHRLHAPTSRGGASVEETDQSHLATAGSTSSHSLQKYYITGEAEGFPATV
T1: DNA aptamer; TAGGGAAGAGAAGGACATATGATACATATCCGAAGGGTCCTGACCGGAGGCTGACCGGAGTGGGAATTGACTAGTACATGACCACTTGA
T2: pre-miR-21 RNA (Homo sapiens); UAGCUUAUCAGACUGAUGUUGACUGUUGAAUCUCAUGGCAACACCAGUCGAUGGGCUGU
UniProt Q96SW2, sequence (whole entry, looked up): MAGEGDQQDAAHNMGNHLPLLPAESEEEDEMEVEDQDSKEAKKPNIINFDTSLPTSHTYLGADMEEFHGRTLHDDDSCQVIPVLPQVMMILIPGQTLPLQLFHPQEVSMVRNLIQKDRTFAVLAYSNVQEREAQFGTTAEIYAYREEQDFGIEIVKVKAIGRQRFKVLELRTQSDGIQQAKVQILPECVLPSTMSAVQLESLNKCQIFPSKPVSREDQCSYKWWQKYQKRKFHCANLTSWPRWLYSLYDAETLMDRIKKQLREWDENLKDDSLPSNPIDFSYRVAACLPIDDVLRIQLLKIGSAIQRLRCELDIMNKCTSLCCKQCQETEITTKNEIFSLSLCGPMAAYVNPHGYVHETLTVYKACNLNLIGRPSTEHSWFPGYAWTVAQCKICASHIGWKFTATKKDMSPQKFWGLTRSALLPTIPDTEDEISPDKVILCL
UniProt Q00194, sequence (whole entry, looked up): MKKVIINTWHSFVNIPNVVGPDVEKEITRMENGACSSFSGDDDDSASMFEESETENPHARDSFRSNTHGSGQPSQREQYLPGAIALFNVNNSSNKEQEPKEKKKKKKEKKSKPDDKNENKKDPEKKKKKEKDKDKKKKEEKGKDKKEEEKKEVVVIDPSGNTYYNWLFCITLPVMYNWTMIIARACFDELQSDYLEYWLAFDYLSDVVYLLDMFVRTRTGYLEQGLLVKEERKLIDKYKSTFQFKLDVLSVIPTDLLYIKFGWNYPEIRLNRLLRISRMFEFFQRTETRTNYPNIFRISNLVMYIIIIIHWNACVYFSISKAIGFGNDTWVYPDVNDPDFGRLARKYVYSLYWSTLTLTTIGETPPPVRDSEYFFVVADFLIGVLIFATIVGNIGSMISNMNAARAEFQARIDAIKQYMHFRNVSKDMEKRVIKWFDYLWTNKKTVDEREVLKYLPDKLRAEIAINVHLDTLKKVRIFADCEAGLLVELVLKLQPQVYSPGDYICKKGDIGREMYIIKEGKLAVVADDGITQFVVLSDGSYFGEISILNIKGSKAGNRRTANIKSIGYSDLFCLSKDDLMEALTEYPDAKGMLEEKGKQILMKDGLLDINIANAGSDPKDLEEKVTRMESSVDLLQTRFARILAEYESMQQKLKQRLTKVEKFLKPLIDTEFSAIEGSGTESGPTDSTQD
UniProt P35372, sequence (whole entry, looked up): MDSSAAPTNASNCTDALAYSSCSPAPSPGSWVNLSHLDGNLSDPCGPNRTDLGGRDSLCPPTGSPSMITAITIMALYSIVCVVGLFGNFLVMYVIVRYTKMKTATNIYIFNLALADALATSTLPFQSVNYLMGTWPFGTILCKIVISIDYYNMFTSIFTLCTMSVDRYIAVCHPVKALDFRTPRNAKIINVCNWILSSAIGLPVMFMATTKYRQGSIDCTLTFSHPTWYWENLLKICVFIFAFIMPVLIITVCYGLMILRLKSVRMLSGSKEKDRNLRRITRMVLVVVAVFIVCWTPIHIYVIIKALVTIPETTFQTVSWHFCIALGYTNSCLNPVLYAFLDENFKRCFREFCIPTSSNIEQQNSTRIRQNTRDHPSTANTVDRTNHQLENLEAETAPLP
UniProt P18031, sequence (whole entry, looked up): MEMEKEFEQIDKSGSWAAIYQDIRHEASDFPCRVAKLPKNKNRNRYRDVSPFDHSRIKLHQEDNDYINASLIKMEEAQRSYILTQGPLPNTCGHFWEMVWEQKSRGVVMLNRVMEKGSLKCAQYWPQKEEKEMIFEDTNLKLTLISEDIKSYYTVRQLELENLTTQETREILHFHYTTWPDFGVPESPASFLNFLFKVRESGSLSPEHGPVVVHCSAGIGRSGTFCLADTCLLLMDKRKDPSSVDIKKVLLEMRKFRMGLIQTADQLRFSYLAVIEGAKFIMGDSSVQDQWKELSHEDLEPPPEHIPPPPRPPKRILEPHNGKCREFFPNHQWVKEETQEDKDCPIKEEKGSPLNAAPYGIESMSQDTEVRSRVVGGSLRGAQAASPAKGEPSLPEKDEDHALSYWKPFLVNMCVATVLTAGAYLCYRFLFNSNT
UniProt P41968, sequence (whole entry, looked up): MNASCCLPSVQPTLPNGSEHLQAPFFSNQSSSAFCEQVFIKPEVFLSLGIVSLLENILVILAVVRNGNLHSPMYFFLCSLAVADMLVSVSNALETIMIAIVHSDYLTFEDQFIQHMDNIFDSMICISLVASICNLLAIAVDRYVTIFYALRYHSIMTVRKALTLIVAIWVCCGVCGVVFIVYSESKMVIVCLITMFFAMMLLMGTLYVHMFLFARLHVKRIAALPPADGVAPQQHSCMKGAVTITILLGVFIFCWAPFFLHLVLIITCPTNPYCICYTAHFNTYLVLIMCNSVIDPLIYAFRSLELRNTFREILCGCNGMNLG
UniProt P42574, sequence (whole entry, looked up): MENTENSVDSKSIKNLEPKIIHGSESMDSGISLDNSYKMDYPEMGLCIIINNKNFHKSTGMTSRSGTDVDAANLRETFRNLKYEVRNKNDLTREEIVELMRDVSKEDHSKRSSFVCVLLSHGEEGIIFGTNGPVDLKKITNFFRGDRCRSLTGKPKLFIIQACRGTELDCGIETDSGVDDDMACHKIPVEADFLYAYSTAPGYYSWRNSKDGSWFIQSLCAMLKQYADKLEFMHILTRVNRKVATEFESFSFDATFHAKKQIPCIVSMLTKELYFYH
UniProt P00433, sequence (whole entry, looked up): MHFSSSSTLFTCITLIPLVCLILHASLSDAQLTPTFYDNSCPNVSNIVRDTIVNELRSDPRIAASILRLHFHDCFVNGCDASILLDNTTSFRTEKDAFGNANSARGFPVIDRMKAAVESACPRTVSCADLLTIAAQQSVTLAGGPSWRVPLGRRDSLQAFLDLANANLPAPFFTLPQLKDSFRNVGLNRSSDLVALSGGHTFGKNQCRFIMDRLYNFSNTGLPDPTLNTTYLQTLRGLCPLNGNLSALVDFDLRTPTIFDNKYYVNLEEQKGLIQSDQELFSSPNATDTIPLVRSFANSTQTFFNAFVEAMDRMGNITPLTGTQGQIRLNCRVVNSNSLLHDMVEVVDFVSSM
UniProt P10415, sequence (whole entry, looked up): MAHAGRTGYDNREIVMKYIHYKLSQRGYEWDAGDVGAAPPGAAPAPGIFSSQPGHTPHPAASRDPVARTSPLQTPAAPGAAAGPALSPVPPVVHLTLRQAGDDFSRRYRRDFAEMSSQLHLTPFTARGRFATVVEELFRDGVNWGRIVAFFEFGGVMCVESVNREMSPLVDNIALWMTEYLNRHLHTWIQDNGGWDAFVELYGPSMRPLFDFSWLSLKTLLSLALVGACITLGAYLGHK

SMILES = O=C(Cc1cccc(C(F)(F)F)c1)Nc1cc(Oc2c(Cl)cc3nc(NC(=O)C4CC4)sc3c2Cl)ccc1F; target = RIPK1; test = KINOMEscan binding Kd; how to read = reference: RIPK1 over RIPK3, higher = more RIPK1-selective; measurement = selectivity ratio; value = > 78
SMILES = CC1=C(/C=C/C(C)=C/C=C/C(C)=C/C=O)C(C)(C)CCC1; target = CNGA1 (Bos taurus, UniProt Q00194); test = allosteric model fit; measurement = cooperativity constant n; value = 1.43
SMILES = CCC(=C(c1ccc(O)cc1)c1ccc(OCCN(C)CCOCCOCCOCCOCCOC)cc1)c1ccccc1 (mixture of isomers); target = ESR2; test = radioligand competition binding; setting = concentration not given, Z-E/E isomer form, with: [3H]estradiol tracer; how to read = reference: estradiol; measurement = relative binding affinity; value = 8.03 ± 0.01%
SMILES = O=C(NCc1ccsc1)N1CCN(C(Cc2cccc(O)c2)c2ccccc2)CC1 (stereo not shown); target = OPRM1 (Homo sapiens, UniProt P35372); test = β-arrestin recruitment, agonist; system = U2OS with GRK2; how to read = reference: DAMGO; measurement = Emax; value = 97%
SMILES = CSCC[C@H](NC(=O)[C@H](Cc1c[nH]c2ccccc12)NC(=O)[C@@H](NC(=O)[C@@H](NC(=O)[C@@H](NC(=O)[C@H](C)NC(=O)[C@@H](NC(=O)[C@H](C)NC(=O)[C@H](CCCCN)NC(=O)[C@H](CCCCN)NC(=O)[C@@H](NC(=O)[C@H](CC(N)=O)NC(=O)[C@H](CCC(=O)O)NC(=O)[C@@H](N)CCSC)C(C)C)[C@@H](C)O)[C@@H](C)O)[C@@H](C)O)[C@@H](C)O)C(=O)N[C@H](C(=O)N1CCC[C@H]1C(=O)N[C@H](C(=O)N[C@@H](CCCNC(=N)N)C(=O)N[C@@H](CCC(N)=O)C(=O)O)[C@@H](C)O)C(C)C; target = Recombining binding protein suppressor of hairless (Rbpj, Mus musculus, UniProt P31266); test = isothermal titration calorimetry; setting = pH 6.5, 25 °C; measurement = ΔH°; value = -13.8 ± 1.1 kcal/mol
SMILES = O=C1c2ccc(O)cc2OC2c3cc(-c4coc5cc(O)ccc5c4=O)ccc3OC12c1ccc(O)cc1 (stereo not shown); target = PRXC1A (Armoracia rusticana, UniProt P00433); test = substrate, Hill kinetic model; setting = product formation, with: hydrogen peroxide NG; measurement = Hill coefficient; value = 0.827
SMILES = C=CCCCCCCO[C@@H]1O[C@H](CO)[C@@H](O)[C@H](O[C@@H]2O[C@H](CO)[C@H](O)[C@H](O)[C@H]2O[C@@H]2O[C@@H](C)[C@@H](O)[C@@H](O)[C@@H]2O)[C@H]1NC(C)=O; target = ABO (Homo sapiens, UniProt P16442, G235S/G268A/L266M/R176G); test = methyl-TROSY NMR titration lineshape; setting = two-state binding model, with: acceptor binding, saturating UDP; measurement = koff; value = < 1 s⁻¹
SMILES = CC(=O)[C@@H]1CCCN1C(=O)[C@@H]1CCCN1C(=O)[C@H](Cc1ccccc1)N(C)C(=O)[C@H](C(C)C)N(C)C(=O)OC(C)(C)C; target = BCL2 (Homo sapiens, UniProt P10415); test = cellular thermal shift; system = DU-145; how to read = highest temperature with stabilization; measurement = stabilization temperature limit; value = ≤ 46 °C
SMILES = CNc1nc(C#Cc2ccc(Cl)s2)nc2c1ncn2[C@@H]1O[C@H](CO)[C@@H](O)[C@H]1O; target = ADORA3 (Homo sapiens, UniProt P0DMS8); test = kinetic radioligand binding; setting = 10 °C, no GTP, with: [3H]PSB-11; measurement = koff; value = 0.00013 ± 2e-05 s⁻¹
SMILES = CCCc1c(-c2ccc(O)cc2)nn(-c2ccc(O)cc2)c1-c1ccc(OCCN2CCCCC2)cc1; target = ESR2; test = competitive radioligand binding; setting = concentration not given; how to read = reference: estradiol, higher = stronger binding; measurement = relative binding affinity; value = 0.54 ± 0.13
SMILES = O=C(Nc1ccc(OC(F)(F)F)cc1)NC1CCN(C(=O)C2CC2)CC1; target = Ephx2 (Mus musculus, UniProt P34914); system = wild-type mice; setting = tested 0.3 to 10 mg/kg, with: TPPU 0.3 mg/kg; measurement = dose reaching plateau of displacement; value = 3 mg/kg
SMILES = CC(=O)N(CC(=O)N(C)[C@@H](C)C(=O)N(Cc1c[nH]c2cc(Cl)ccc12)[C@@H](C)C(=O)N(C)[C@@H](C)C(=O)N(CCC(C)(C)C)[C@@H](C)C(=O)N1CCNCC1)Cc1ccccc1; target = E3 ubiquitin-protein ligase Mdm2, N-terminal domain 17-125 (MDM2, Homo sapiens, UniProt Q00987); test = isothermal titration calorimetry; system = PBS; setting = concentration not given, 25 °C; measurement = binding enthalpy; value = -7.78 kcal/mol
SMILES = Cc1ccc2c(c1)C(=O)N(C1CCC(=O)NC1=O)C2=O (stereo not shown); target = Protein cereblon, in CRL4 complex (CRBN, Homo sapiens, UniProt Q96SW2); test = CRL4-CRBN ubiquitination, inhibitor, immunoblotting; setting = concentration not given; measurement = MEIS2 ubiquitination; value = inhibited
SMILES = CC(=C(c1ccc(Cl)cc1)c1ccc(OCCCN(C)C)cc1)c1ccc(Cl)cc1; target = ESR1; test = reporter gene, agonist, yeast estrogen screen; setting = 1 µM; how to read = reference: DMSO; measurement = fold activation; value = 1.95 ± 0.19 fold
SMILES = CCSc1nc2c([nH]1)c(=O)n(C)c(=O)n2C; target = ESR1; test = reporter gene, ERE luciferase; system = T47D-KBluc; setting = 10 µM, 24 h, with: estradiol 5 nM; how to read = reference: maximal luciferase activity; measurement = reporter activity; value = 98%
SMILES = C[N+](C)(C)CCCCOc1ccc2cc(CN)ccc2c1; target = Primary amine oxidase, liver isozyme (Bos taurus, UniProt Q29437); test = substrate, fluorescence; how to read = reference: benzylamine; measurement = relative kcat/Km; value = 350
SMILES = N=C(N)NCCC[C@H](NC(=O)[C@H](CC(=O)O)NC(=O)[C@@H]1CSCCC(=O)NCC(=O)N[C@@H](Cc2c[nH]cn2)C(=O)N[C@H](Cc2ccccc2)C(=O)N[C@@H](CCCNC(=N)N)C(=O)N[C@@H](Cc2c[nH]c3ccccc23)C(=O)N1)C(=O)N[C@@H](Cc1ccccc1)C(=O)NCC(N)=O; target = MC3R (Homo sapiens, UniProt P41968); test = cAMP accumulation, agonist; system = HEK293 expressing MC3R; setting = 10 µM; how to read = reference: MT-II; measurement = activation; value = 52%
SMILES = O=C(NC1CCCC1)N1CCC=C(c2cc3c(Nc4cc5ncsc5cc4F)ncnc3s2)C1; target = RIPK1; test = enzyme activity; setting = 1 µM; how to read = reference: untreated; measurement = remaining activity; value = 96 ± 2%
SMILES = CCNC(=O)[C@H]1O[C@@H](n2cnc3c(NCCCCNC(=O)CCCCCNC(=O)COc4ccc(/C=C/C5=[N+]6C(=Cc7ccc(-c8cccs8)n7[B-]6(F)F)C=C5)cc4)ncnc32)[C@H](O)[C@@H]1O; target = ADORA1 (Homo sapiens, UniProt P30542); test = CRE reporter gene, agonist; system = CHO-A1; setting = PTX 100 ng/mL overnight, with: forskolin 3 µM; how to read = reference: forskolin alone; measurement = maximal Gs response; value = 1.44 ± 0.03 fold increase
SMILES = CC(C)(O)[C@@H]1CC[C@](C)([C@H]2[C@@H](O)C[C@@]3(C)[C@@H]4C[C@H](O)[C@H]5C(C)(C)[C@@H](O)CC[C@@]56C[C@@]46CC[C@]23C)O1; target = Glycosyltransferase GT1 (Astragalus membranaceus, UniProt A0A977WMR2, G146V); test = substrate; setting = 3-OH glucosylation, with: UDP-glucose; measurement = kcat/Km; value = not detected
SMILES = CC(=O)N[C@@H](CC(=O)O)C(=O)N[C@@H](CCC(=O)O)C(=O)N[C@H](C(=O)N[C@@H](CC(=O)O)C(=O)Nc1ccc2c(C)cc(=O)oc2c1)C(C)C; target = Caspase-3 (CASP3, Homo sapiens, UniProt P42574); test = substrate cleavage, substrate, fluorogenic AMC release; setting = enzyme 0.25 activity units/µL; measurement = Vmax; value = 941 ± 31.6 RFU/min
SMILES = C[C@H](N)C(=O)N[C@@H](CCCNC(=N)N)C(=O)N[C@H](C(=O)N[C@@H](CSCC[N+](C)(C)C)C(=O)N[C@@H](CCC(N)=O)C(=O)N[C@H](C(=O)N[C@@H](C)C(=O)N[C@@H](CCCNC(=N)N)C(=O)N[C@@H](CCCCN)C(=O)N[C@@H](CO)C(=O)N[C@H](C(=O)NCC(=O)NCC(=O)N[C@@H](CCCCN)C(=O)N[C@@H](C)C(=O)N[C@@H](CCCCNC(=O)c1ccc2c(c1)C(=O)OC21c2ccc(O)cc2Oc2cc(O)ccc21)C(N)=O)[C@@H](C)O)[C@@H](C)O)[C@@H](C)O; target = Inhibitor of growth protein 1, PHD finger (ING1, Homo sapiens, UniProt Q9UK53); test = fluorescence polarisation; setting = 25 °C, with: H3K4me3 methyl-lysine analogue peptide; measurement = binding free energy; value = -6.74 ± 0.12 kcal/mol
SMILES = C[C@]12CC[C@@H]3c4ccc(O)cc4C(=NOCC(=O)O)C[C@H]3[C@@H]1CC[C@@H]2O; target = T1, DNA aptamer; test = APAA; setting = NaCl 100 mM; measurement = Kd; value = 0.0031 µM
SMILES = CC1(C)C=Cc2c(cc(O)c3c(=O)cc(-c4ccc(O)cc4O)oc23)O1; target = PTPN1 (Homo sapiens, UniProt P18031); test = Lineweaver-Burk and Dixon plots; measurement = Ki (enzyme-substrate complex); value = 2.89 µM
SMILES = CCN(CC)CCOc1ccc(C(=C(C)Cc2ccc(Cl)cc2)c2ccc(Cl)cc2)cc1; target = ESR1; test = reporter gene, agonist, yeast estrogen screen; setting = 1 µM; how to read = reference: DMSO; measurement = fold activation; value = 1.05 ± 0.1 fold
SMILES = C[C@H](CCC(=O)N[C@@H](CCC(=O)Nc1ccc(F)nc1)C(=O)O)[C@H]1CC[C@H]2[C@@H]3[C@H](O)C[C@@H]4C[C@H](O)CC[C@]4(C)[C@H]3CC[C@]12C; target = SLC10A2 (Homo sapiens, UniProt Q12908); test = transport efficiency, substrate, LC-MS/MS; system = ASBT-MDCK; measurement = normalized Jmax/Kt; value = 0.0262 µM⁻¹
SMILES = COc1ccc(C(C/C=C/CN2CCCC(C(=O)O)C2)(c2ccc(OC)cc2)c2ccc(OC)cc2)cc1 (stereo not shown); target = Sodium- and chloride-dependent glycine transporter 1, isoform GlyT1c (SLC6A9, Homo sapiens, UniProt P48067); test = inhibitor, MS binding competition; setting = 1.0 µM, pH 7.5, 22 °C, compound mixture deconvolution, with: Org24598 15 nM; measurement = remaining specific binding; value = 49.8 ± 6.5%
SMILES = Cc1ccc(C(=O)NCCN(Cc2ccncc2)C(=O)CCCOc2ccc(-c3nc4cc(-c5ccc(N6CCN(C)CC6)cc5)ccc4[nH]3)cc2)cc1F; target = T2, pre-miR-21 RNA (Homo sapiens); test = RNase L cleavage, competitor, RNase L cleavage assay; setting = with: RIBOTAC TGP-21-C1-3; measurement = IC50; value = 21 µM

Some of these lines once more:
SMILES = C[C@]12CC[C@@H]3c4ccc(O)cc4C(=NOCC(=O)O)C[C@H]3[C@@H]1CC[C@@H]2O; target = T1, DNA aptamer; test = APAA; setting = NaCl 100 mM; measurement = Kd; value = 0.0031 µM
SMILES = CC1(C)C=Cc2c(cc(O)c3c(=O)cc(-c4ccc(O)cc4O)oc23)O1; target = PTPN1 (Homo sapiens, UniProt P18031); test = Lineweaver-Burk and Dixon plots; measurement = Ki (enzyme-substrate complex); value = 2.89 µM
SMILES = CCN(CC)CCOc1ccc(C(=C(C)Cc2ccc(Cl)cc2)c2ccc(Cl)cc2)cc1; target = ESR1; test = reporter gene, agonist, yeast estrogen screen; setting = 1 µM; how to read = reference: DMSO; measurement = fold activation; value = 1.05 ± 0.1 fold
SMILES = C[C@H](CCC(=O)N[C@@H](CCC(=O)Nc1ccc(F)nc1)C(=O)O)[C@H]1CC[C@H]2[C@@H]3[C@H](O)C[C@@H]4C[C@H](O)CC[C@]4(C)[C@H]3CC[C@]12C; target = SLC10A2 (Homo sapiens, UniProt Q12908); test = transport efficiency, substrate, LC-MS/MS; system = ASBT-MDCK; measurement = normalized Jmax/Kt; value = 0.0262 µM⁻¹
